Published values gathered from unrelated publications.
Parts stem from different laboratories: compare values within a part only. Substitutions count along the parent as printed.

Study 1
Target: CCNE2, cyclin fold, Cln2 fusion (human)
Technique: yeast growth competition, sequencing
Matrix: yeast
Notes: strong parent motif
Relative to: not given
Reading: higher = stronger binding
Parent: SCAPER docking peptide (human); SNARRSLNFGGST
Variant | normalised enrichment score
SNARRSLNFGGSL [T13L] | 1.12
SNARRWLNFGGST [S6W] | 2.35
SNARRSYNFGGST [L7Y] | 0.188
SNARRSLQFGGST [N8Q] | 1.26
SNAHRSLNFGGST [R4H] | 0.475
SNARRSVNFGGST [L7V] | 0.155

Study 2
Target: Histone acetyltransferase KAT6A, winged helix 2, GST fusion (KAT6A, Homo sapiens, UniProt Q92794, residues 85-181)
Technique: protein binding microarray
Molecule type: double-stranded DNA, one strand shown
Matrix: in vitro
Tested at: not given
Notes: 8-mer, flanks averaged, mean of 2 arrays, mostly near background
Relative to: not given
Reading: higher = stronger binding
Target sequence (chain): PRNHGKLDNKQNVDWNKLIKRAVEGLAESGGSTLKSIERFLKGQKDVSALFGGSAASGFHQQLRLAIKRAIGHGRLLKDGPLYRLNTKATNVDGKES
Sequence | E-score
AATCGACT | -0.255
GATGAAAC | 0.0752
CCTGTACG | -0.0602
AGGCAGGA | -0.0457
CACCATAC | -0.068
GTCAAATA | 0.154
CGTACGCC | -0.00291

Study 3
Target: RING finger protein unkempt homolog, zinc fingers 1-6, GST-SBP tag (UNK, Homo sapiens, UniProt Q9C0B0, residues 30-357)
UniProt Q9C0B0, sequence (30-357, looked up): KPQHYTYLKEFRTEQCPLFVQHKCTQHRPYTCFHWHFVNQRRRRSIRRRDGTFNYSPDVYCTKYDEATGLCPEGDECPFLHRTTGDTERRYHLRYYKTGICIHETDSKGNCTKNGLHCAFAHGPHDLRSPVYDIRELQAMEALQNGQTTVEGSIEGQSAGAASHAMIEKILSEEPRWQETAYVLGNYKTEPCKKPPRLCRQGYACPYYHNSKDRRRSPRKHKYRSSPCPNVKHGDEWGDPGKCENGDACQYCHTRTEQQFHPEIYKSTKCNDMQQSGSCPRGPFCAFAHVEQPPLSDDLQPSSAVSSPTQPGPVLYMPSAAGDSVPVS
Technique: RNA Bind-n-Seq
Molecule type: RNA
Matrix: in vitro
Tested at: not given
Notes: RNA with constant flanks, human-mouse chimeric sites, ends assumed
Relative to: input RNA pool
Reading: higher = stronger binding
Sequence | bound/input enrichment [ratio]
GGGAGUUCUACAGUCCGACGAUCUGUAGUUUCUUGAUUUAGUGGCUGGGCCUUUUCUUUCUUUCCUUUAGGAAAAGCCUAAAGAUUAGGUUGUAAGAAAAACAGAAGCCAUGUUUCGAAGACCUGUGUUACAGGUAUUUCGUCCAACAGAGGAUUGAGCAUCA | 0.249
GGGAGUUCUACAGUCCGACGAUCAAAGGCAAAAAGGGCAGCUGUGUCAUUUCAUAAGUAAAACUGCAUCCGGGAAAUUCUGUUCUUUUGUUUAAUUUUCCCCCAAAUGAAGCCAAAGUGUGUGUUGAAGAACUGAGAAAAAAUCAACAGAGGAUUGAGCAUCA | 0.255
GGGAGUUCUACAGUCCGACGAUCAAAGCCCAAGUAUUUUGAAAAAACUCGAACAGAUUUGUCAAGGGUAACCAGCUUGGAGUCUAGCAACUUGCCAAUGUGUUUACCAAUCUGGGGGCUUGUUUUUCUUUCCCUUCCUUAAAUCAACAGAGGAUUGAGCAUCA | 0.297

Mixed results
Molecule | target | assay | test system | conditions | scale | endpoint | result
PhoQ, residues 284 288 289 292 302 303 SCCLKL | PhoP, residues 12 14 15 18 19 STWGI (Escherichia coli, UniProt P23836) | Sort-seq, refers to: YFP reporter | E. coli | PhoQ-PhoP variant library, added: 10 µM Mg2+ | relative to: high Mg2+ state, higher = stronger signaling | fold induction | 4.09
